Experimental data pooled from the literature.
Compare with care: the assays were run in different laboratories. In brackets after ≈: the same amount, converted by molar mass.
Chain of UniProt Q15759 (whole entry, looked up): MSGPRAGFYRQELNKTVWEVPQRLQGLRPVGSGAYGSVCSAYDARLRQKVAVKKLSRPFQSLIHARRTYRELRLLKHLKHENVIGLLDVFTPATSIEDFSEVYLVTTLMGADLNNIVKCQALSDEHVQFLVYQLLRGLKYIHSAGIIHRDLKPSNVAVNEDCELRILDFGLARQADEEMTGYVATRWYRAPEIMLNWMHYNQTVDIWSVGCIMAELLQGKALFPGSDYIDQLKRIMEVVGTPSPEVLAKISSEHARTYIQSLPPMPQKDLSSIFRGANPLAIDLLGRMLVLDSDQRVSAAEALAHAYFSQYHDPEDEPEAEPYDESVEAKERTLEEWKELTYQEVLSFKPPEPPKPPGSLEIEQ
Chain of UniProt Q13523 (whole entry, looked up): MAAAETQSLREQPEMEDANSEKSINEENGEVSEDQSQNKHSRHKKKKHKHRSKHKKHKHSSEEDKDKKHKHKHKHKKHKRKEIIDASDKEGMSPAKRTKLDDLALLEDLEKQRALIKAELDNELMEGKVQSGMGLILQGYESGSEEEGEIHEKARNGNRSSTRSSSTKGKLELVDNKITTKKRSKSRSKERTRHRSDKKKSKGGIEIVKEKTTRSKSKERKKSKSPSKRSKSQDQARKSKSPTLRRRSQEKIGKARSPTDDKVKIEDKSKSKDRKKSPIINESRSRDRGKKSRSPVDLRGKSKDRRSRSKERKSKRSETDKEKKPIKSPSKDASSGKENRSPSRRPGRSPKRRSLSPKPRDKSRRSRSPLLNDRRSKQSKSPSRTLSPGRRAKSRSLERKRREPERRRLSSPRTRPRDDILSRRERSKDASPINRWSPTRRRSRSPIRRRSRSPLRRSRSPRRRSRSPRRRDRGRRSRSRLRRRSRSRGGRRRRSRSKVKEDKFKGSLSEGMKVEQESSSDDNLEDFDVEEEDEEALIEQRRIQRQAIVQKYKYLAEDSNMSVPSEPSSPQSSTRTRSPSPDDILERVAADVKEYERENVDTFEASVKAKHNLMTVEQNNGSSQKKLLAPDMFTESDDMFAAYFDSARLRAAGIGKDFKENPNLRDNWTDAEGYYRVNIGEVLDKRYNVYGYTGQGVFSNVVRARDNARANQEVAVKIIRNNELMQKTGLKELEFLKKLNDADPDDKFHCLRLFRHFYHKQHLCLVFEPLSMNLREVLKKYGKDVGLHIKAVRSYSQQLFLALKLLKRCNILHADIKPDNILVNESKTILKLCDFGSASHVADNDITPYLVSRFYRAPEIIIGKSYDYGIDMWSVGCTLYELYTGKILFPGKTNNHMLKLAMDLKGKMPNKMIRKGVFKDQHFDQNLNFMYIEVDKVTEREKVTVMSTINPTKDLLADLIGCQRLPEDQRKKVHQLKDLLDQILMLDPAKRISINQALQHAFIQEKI
Chain of UniProt Q9HCP0 (whole entry, looked up): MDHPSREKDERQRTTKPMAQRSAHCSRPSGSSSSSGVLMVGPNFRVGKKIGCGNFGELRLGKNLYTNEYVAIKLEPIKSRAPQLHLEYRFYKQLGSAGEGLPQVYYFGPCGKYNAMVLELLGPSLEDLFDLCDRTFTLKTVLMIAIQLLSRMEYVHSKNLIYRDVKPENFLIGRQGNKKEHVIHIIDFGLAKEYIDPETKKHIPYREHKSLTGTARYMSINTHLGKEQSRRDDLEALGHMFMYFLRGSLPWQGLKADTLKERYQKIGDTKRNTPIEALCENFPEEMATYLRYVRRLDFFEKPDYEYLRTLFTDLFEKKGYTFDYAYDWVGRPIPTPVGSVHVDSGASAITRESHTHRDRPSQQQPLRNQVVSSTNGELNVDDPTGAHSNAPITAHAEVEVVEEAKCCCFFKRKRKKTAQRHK
Chain of UniProt Q9H2G2 (whole entry, looked up): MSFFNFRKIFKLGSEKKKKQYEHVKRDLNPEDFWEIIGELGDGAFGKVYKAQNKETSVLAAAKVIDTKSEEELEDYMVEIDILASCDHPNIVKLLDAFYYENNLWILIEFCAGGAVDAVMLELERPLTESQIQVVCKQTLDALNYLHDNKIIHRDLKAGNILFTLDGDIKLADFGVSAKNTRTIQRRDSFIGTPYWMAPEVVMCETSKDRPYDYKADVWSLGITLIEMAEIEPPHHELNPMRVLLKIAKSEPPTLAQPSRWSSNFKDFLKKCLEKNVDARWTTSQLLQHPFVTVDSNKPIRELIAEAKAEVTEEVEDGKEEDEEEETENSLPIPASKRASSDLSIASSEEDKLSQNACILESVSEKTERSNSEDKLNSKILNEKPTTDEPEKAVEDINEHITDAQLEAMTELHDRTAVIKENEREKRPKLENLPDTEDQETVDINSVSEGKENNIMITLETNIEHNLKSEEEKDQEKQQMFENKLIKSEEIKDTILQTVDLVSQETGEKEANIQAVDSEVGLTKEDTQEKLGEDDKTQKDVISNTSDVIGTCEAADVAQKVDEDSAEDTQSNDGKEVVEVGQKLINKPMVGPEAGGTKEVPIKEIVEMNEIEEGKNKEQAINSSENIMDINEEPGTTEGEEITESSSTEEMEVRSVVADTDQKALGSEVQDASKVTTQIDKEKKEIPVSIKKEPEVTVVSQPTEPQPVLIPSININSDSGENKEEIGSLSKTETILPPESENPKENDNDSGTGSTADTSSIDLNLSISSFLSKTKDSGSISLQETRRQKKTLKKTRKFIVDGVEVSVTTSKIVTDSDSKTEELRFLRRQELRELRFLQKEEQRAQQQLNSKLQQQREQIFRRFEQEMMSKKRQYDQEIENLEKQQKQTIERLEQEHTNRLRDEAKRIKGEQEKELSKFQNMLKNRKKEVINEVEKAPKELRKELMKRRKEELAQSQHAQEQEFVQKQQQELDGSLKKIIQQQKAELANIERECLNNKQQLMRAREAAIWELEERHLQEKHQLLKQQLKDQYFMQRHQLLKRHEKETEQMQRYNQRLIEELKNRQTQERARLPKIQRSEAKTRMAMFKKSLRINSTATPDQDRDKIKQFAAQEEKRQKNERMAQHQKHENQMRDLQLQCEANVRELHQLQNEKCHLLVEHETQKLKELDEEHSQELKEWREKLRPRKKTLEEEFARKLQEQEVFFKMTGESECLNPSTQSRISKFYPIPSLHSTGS
Chain of UniProt Q9BVS4 (whole entry, looked up): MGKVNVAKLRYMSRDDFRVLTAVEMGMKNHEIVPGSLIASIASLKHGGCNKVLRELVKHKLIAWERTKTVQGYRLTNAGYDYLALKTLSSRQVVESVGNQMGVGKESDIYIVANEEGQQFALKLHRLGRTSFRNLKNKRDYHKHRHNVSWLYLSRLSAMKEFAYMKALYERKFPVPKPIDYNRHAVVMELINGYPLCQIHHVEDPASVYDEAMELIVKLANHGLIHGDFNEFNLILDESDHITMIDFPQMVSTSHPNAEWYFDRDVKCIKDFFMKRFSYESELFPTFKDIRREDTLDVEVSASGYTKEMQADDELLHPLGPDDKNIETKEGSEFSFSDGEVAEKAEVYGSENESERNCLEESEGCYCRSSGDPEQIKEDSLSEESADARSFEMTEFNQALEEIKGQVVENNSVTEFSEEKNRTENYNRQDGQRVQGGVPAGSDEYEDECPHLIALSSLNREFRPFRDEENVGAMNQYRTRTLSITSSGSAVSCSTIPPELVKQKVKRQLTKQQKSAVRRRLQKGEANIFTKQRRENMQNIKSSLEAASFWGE

CCCN(O)N=Nc1ccc(S(=O)(=O)Nc2nccs2)cc1 — inhibition (ABTS scavenging; 300 µg/mL): 64.6%
CC[C@H](N)C(=O)O — activity vs control (Cryptosporidium parvum; parasite growth, imaging; HCT-8; 1 mM, 24 h, intracellular): 101%
COc1cc(C#CC(=O)c2cccc(C)c2)ccc1O — activity vs control (Pseudomonas aeruginosa; microbial growth, absorbance; 100 µM, 24 h): 130%
Cc1ccc(C(C)(C)c2ccc(NC(=O)CN(C)c3ccccc3N3CCCC3=O)cc2)cc1 — EC50 (Plasmodium falciparum; parasite growth; 3D7; 72 h, blood stage): 215 nM
CC(=O)N[C@@H](CCC(=O)O)C(=O)O — activity vs control (Cryptosporidium parvum; parasite growth, imaging; HCT-8; 1 mM, 24 h, intracellular): 96.7%
CN(CC(=O)Nc1ccc(N(C)c2ccc(F)c(F)c2)cc1)c1ccccc1N1CCCC1=O — EC50 (Plasmodium falciparum; parasite growth; 3D7; 72 h, blood stage): 51 nM
COc1cc(C#CC(O)c2ccccc2OC)ccc1O (centres unmarked) — activity vs control (Pseudomonas aeruginosa; microbial growth, absorbance; 100 µM, 24 h): 79%
CC(=O)NC[C@H]1CN(c2ccc(N3CCOCC3)c(F)c2)C(=O)O1 — MIC90 (Streptococcus pneumoniae; microbial growth; clinical isolate): 2 µg/mL (≈ 5.93 µM)
CN(O)N=Nc1ccc(S(=O)(=O)Nc2nccs2)cc1 — inhibition (ABTS scavenging; 240 µg/mL): 92.2%
CN1CCN(c2nc(C3=C(c4c[nH]c5ccccc45)C(=O)NC3=O)c3ccccc3n2)CC1 — MIC (Staphylococcus aureus; microbial growth; NCTC8325): > 30 µM
C=CC(=O)N1CCC(COCC(=O)N2CCN(c3nc(-c4cnc(N)nc4C(F)F)nc(N4CCOC[C@@H]4C)n3)CC2)CC1 — remaining binding (RIOK2 (Homo sapiens, UniProt Q9BVS4); binding, competition with immobilised ligand; 1 µM): 100%
CC(=O)N[C@H]1[C@H]([C@H](O)[C@H](O)CO)OC(O)(C(=O)O)C[C@@H]1O (some centres unmarked) — activity vs control (Cryptosporidium parvum; parasite growth, imaging; HCT-8; 1 mM, 24 h, intracellular): 103%
COC(=O)Nc1nc2cc(C(=O)c3ccc(F)cc3)ccc2[nH]1 — IC50 (Cryptococcus neoformans; microbial growth, broth dilution; 72 h, clinical isolate): 1250 nM
CCCCC(=O)Nc1ccc(-c2ccc3ncn(CCC)c(=O)c3c2)cn1 — remaining binding (PRPF4B (Homo sapiens, UniProt Q13523); binding, competition with immobilised ligand; 0.5 µM): 74%
CC1(C)CNc2cc(NC(=O)c3cccnc3NCc3ccncc3)ccc21 — MIC (Staphylococcus aureus; microbial growth; NCTC8325): > 30 µM
CN(Cc1ccc(C(C)(C)C)cc1)Cc1cccc2ccccc12 — inhibition zone (Trichophyton rubrum; microbial growth, disc diffusion; ATCC28188; 0.128 µg/mL, 6 days): ≥ 55 mm
NCCS(=O)(=O)O — activity vs control (Cryptosporidium parvum; parasite growth, imaging; HCT-8; 1 mM, 24 h, intracellular): 98%
S=C(NCc1ccc2c(c1)OCO2)N1CCN(c2ncnc3c2oc2ccccc23)CC1 — MIC (Staphylococcus aureus; microbial growth; NCTC8325): > 30 µM
C=C[C@]1(C)C[C@@H](OC(=O)CS[C@@H]2C[C@H]3CC[C@@H](C2)N3C)[C@]2(C)[C@H](C)CC[C@]3(CCC(=O)[C@H]32)[C@@H](C)[C@@H]1O — MIC90 (Streptococcus pneumoniae; microbial growth; clinical isolate): 0.0312 µg/mL (≈ 0.0604 µM)
CCN(CC)CCCC(C)Nc1ccnc2cc(Cl)ccc12 (centres unmarked) — EC50 (Plasmodium falciparum; parasite growth; 3D7; 72 h, blood stage): 30 nM
CO[C@H]1C[C@@H]2CC[C@@H](C)[C@@](O)(O2)C(=O)C(=O)N2CCCC[C@H]2C(=O)O[C@H]([C@H](C)C[C@@H]2CC[C@@H](O)[C@H](OC)C2)CC(=O)[C@H](C)/C=C(\C)[C@@H](O)[C@@H](OC)C(=O)[C@H](C)C[C@H](C)/C=C/C=C/C=C/1C — IC50 (Trypanosoma cruzi; parasite growth, absorbance; Vero, TULAHUEN; 96 h, intracellular, amastigote): 8110 nM
CCC1=C[C@@H]2CN(C1)Cc1c([nH]c3ccccc13)[C@@](C(=O)OC)(c1cc3c(cc1OC)N(C)[C@H]1[C@@](O)(C(=O)OC)[C@H](OC(C)=O)[C@]4(CC)C=CCN5CC[C@]31[C@@H]54)C2 — MIC (Staphylococcus aureus; microbial growth; NCTC8325): > 30 µM
Cc1ccc(N(C)c2ccc(NC(=O)CN(C)c3ccccc3N3CCCC3=O)cc2)cc1F — EC50 (Plasmodium falciparum; parasite growth; 3D7; 72 h, blood stage): 26 nM
CC[C@@H]1/C=C(\C)C[C@H](C)C[C@H](OC)[C@H]2O[C@@](O)(C(=O)C(=O)N3CCCC[C@H]3C(=O)O[C@H](/C(C)=C/[C@@H]3CC[C@H](Cl)[C@H](OC)C3)[C@H](C)[C@@H](O)CC1=O)[C@H](C)C[C@@H]2OC — IC50 (Trypanosoma cruzi; parasite growth, absorbance; Vero, TULAHUEN; 96 h, intracellular, amastigote): 2160 nM
COC(=O)Nc1nc2ccc(C(=O)c3ccccc3)cc2[nH]1 — IC90 (Cryptococcus neoformans; microbial growth, broth dilution; 72 h): 2500 nM
CCC(C)N(c1ccc(C)cc1)c1ccc(NC(=O)CN(C)c2ccccc2N2CCCC2=O)cc1 (centres unmarked) — EC50 (Plasmodium falciparum; parasite growth; 3D7; 72 h, blood stage): 14 nM
CCCCCCCCNC(=O)Nc1ccc(Oc2ccnc(C(=O)NC)c2)cc1 — MIC (Staphylococcus aureus; microbial growth; NCTC8325): > 100 µM
COc1cc(C#CC(=O)c2ccccc2C)ccc1O — activity vs control (Pseudomonas aeruginosa; microbial growth, absorbance; 10 µM, 24 h): 97%
C#CCOC(=O)ON=C1C=CC(=C(C#N)c2ccccc2)C=C1 — MFC (Candida tropicalis; microbial killing, broth dilution; ATCC13803; 48 h): 16 µg/mL (≈ 52.6 µM)
Cc1ccc(N(C)c2ccc(NC(=O)CN(C)c3ccccc3N3CCCC3=O)cc2)c(F)c1 — EC50 (Plasmodium falciparum; parasite growth; 3D7; 72 h, blood stage): 20 nM
COc1cc(C#CC(O)c2ccccc2)ccc1O (centres unmarked) — activity vs control (Pseudomonas aeruginosa; microbial growth, absorbance; 10 µM, 24 h): 93%
CC(=O)OC[C@@]1(C)[C@H]2CC[C@@H]3CN(Cc4ccc(C)cc4)[C@@H](C4=CCOC4=O)C[C@H]3[C@]2(C)CC[C@H]1OC(C)=O — inhibition (unidentified human coronavirus; cytopathic effect; MRC5; 25 µM, 72 h): 79.3%
COc1ccc(C=NNC(=O)CSc2nc3ccc(Cl)cc3c(=O)n2-c2ccccc2)cc1OS(C)(=O)=O — inhibition zone (Pseudomonas aeruginosa; microbial growth, well diffusion; 20 µg/mL): 3 mm
COc1ccc(C(=O)C#Cc2ccc(F)c(F)c2)cc1 — activity vs control (Pseudomonas aeruginosa; microbial growth, absorbance; 100 µM, 24 h): 81%
COc1cc(NC(=O)Nc2ccc(Cl)c(C(F)(F)F)c2)cc(OC)c1OC — MIC (Staphylococcus aureus; microbial growth; NCTC8325; 24 h): 30 µM (≈ 12.1 µg/mL)
O=C(C#Cc1ccc(F)c(F)c1)c1cccc(Cl)c1 — activity vs control (Pseudomonas aeruginosa; microbial growth, absorbance; 100 µM, 24 h): 96%
CN(Cc1ccc(C2(C(F)(F)F)CC2)cc1)Cc1cccc2ccccc12 — inhibition zone (Trichophyton rubrum; microbial growth, disc diffusion; ATCC28188; 0.032 µg/mL, 6 days): 55 mm
Cc1cc([C@@H](C)Nc2ccccc2C(=O)O)c2nc(N3CCC(F)(F)CC3)c(C#N)c(=O)n2c1 — remaining binding (MAPK11 (Homo sapiens, UniProt Q15759); binding, competition with immobilised ligand; 1 µM): 71%
CNc1ncc2c(/C=C/C(=O)N3CCC(OC)CC3)nn(Cc3cccc(C(F)(F)F)c3)c2n1 — remaining activity (CSNK1G1 (Homo sapiens, UniProt Q9HCP0); enzyme activity, inhibitor, radiometric; 1 µM): 103%
O=C(C#Cc1ccc(F)c(F)c1)c1ccccc1Cl — activity vs control (Pseudomonas aeruginosa; microbial growth, absorbance; 100 µM, 24 h): 97%
CC(O)C(=O)O (centres unmarked) — activity vs control (Cryptosporidium parvum; parasite growth, imaging; HCT-8; 1 mM, 24 h, intracellular): 105%
COc1cc2nccc(Oc3ccc(NC(=O)C4(C(=O)Nc5ccc(F)cc5)CC4)cc3)c2cc1OC — MIC (Staphylococcus aureus; microbial growth; NCTC8325): > 30 µM
Cc1ncc(CO)c(C=O)c1O — activity vs control (Cryptosporidium parvum; parasite growth, imaging; HCT-8; 1 mM, 24 h, intracellular): 28.5%
CCCS(=O)(=O)Oc1cc(C=NNC(=O)CSc2nc3ccc(Cl)cc3c(=O)n2-c2ccccc2)ccc1OC — inhibition zone (Klebsiella pneumoniae; microbial growth, well diffusion; 20 µg/mL): 2 mm
CN(CC(=O)Nc1ccc(N(C)c2ccc(Cl)cc2)c(Cl)c1)c1ccccc1N1CCCC1=O — EC50 (Plasmodium falciparum; parasite growth; 3D7; 72 h, blood stage): 418 nM
O=C(O)/C=C/C(=O)O — activity vs control (Cryptosporidium parvum; parasite growth, imaging; HCT-8; 1 mM, 24 h, intracellular): 73.7%
OCCn1cc(-c2ccc3c(c2)CC/C3=N\O)c(-c2ccncc2)n1 — MIC (Staphylococcus aureus; microbial growth; NCTC8325): > 30 µM
COc1cc(C#CC(=O)c2cccc(Cl)c2)ccc1O — activity vs control (Pseudomonas aeruginosa; microbial growth, absorbance; 100 µM, 24 h): 95%
NCCC(=O)O — activity vs control (Cryptosporidium parvum; parasite growth, imaging; HCT-8; 1 mM, 24 h, intracellular): 112%
COc1cc(-c2cncc3c2CN(C)Cc2cc(N4CCNCC4)ccc2-3)cc(OC)c1OC — remaining activity (SLK (Homo sapiens, UniProt Q9H2G2); enzyme activity, inhibitor; 1 µM): 106%

For quick reference, copied from above:
C#CCOC(=O)ON=C1C=CC(=C(C#N)c2ccccc2)C=C1 — MFC (Candida tropicalis; microbial killing, broth dilution; ATCC13803; 48 h): 16 µg/mL (≈ 52.6 µM)
COc1cc(-c2cncc3c2CN(C)Cc2cc(N4CCNCC4)ccc2-3)cc(OC)c1OC — remaining activity (SLK (Homo sapiens, UniProt Q9H2G2); enzyme activity, inhibitor; 1 µM): 106%
CCCS(=O)(=O)Oc1cc(C=NNC(=O)CSc2nc3ccc(Cl)cc3c(=O)n2-c2ccccc2)ccc1OC — inhibition zone (Klebsiella pneumoniae; microbial growth, well diffusion; 20 µg/mL): 2 mm
O=C(C#Cc1ccc(F)c(F)c1)c1cccc(Cl)c1 — activity vs control (Pseudomonas aeruginosa; microbial growth, absorbance; 100 µM, 24 h): 96%
CC(=O)OC[C@@]1(C)[C@H]2CC[C@@H]3CN(Cc4ccc(C)cc4)[C@@H](C4=CCOC4=O)C[C@H]3[C@]2(C)CC[C@H]1OC(C)=O — inhibition (unidentified human coronavirus; cytopathic effect; MRC5; 25 µM, 72 h): 79.3%
Cc1ccc(N(C)c2ccc(NC(=O)CN(C)c3ccccc3N3CCCC3=O)cc2)c(F)c1 — EC50 (Plasmodium falciparum; parasite growth; 3D7; 72 h, blood stage): 20 nM
